Experimental data collected from several papers.
Protocols differ between the studies behind these lines. Values joined by “and” are separate records of one study, mostly repeats; a detail may differ. ± gives the spread as reported.

| SMILES | target or system | test | system | setting | measurement | result |
| --- | --- | --- | --- | --- | --- | --- |
| O=C1NC2(CC2)COc2ncc(F)cc2[C@H]2COCCN2c2ccn3ncc1c3n2 | – | – | Sprague-Dawley rat, female, serum | oral, 2.5 mg/kg/day, 4 weeks daily, end of treatment | alanine aminotransferase activity | 32 ± 8.8 U/L |
| COc1cccc(COc2ccc(Nc3ncnc4ccc(-c5ccc(S(=O)(=O)N6CCOCC6)cc5)cc34)cc2Cl)c1 | Trypanosoma cruzi | intracellular amastigote growth, β-galactosidase CPRG | 3T3, Tulahuen, β-galactosidase-expressing | 10 µM, 96 h | inhibition | 5% |
| CNCCO.O=C(O)C(Cl)Cl | Solanum nigrum | herbicidal activity | – | 15 mg/mL, 21 days, pre-emergence greenhouse | inhibition | 0% |
| CCOC(=O)C1(Cc2ccc(OC)cc2)Oc2cc(F)ccc2N(Cc2ccc(OC)cc2)C1=O (stereo not shown) | Setaria viridis | fresh weight, greenhouse postemergence | – | postemergence, 150 g ai/ha, 21 days | inhibition | 44 ± 1.47% |
| CCc1nn(C)c2nc(-c3ccc(C(=O)O)cc3)nc(NCc3ccccc3)c12 | Cryptosporidium parvum | parasite growth, immunofluorescence imaging | HCT-8, Iowa | 24.7 nM | inhibition | -14.5% and 1.87% |
| CCOC(=O)C1(Cc2ccccc2)Oc2cc(OC)ccc2N(Cc2ccccc2)C1=O (stereo not shown) | Setaria viridis | fresh weight, greenhouse postemergence | – | postemergence, 150 g ai/ha, 21 days | inhibition | 43.7 ± 1.61% |
| O=S(=O)(c1ccc(-c2ccc3ncnc(Nc4ccc(OCc5cccc(F)c5)c(Cl)c4)c3c2)cc1)N1CCCC1 | Trypanosoma cruzi | intracellular amastigote growth | NIH 3T3, Tulahuen, β-galactosidase-expressing | 10 µM, 96 h | inhibition | 10% |
| CCOC(=O)C1(Cc2cccc(C(C)C)c2)Oc2cc(F)ccc2N(Cc2cccc(C(C)C)c2)C1=O (stereo not shown) | Setaria viridis | fresh weight, greenhouse postemergence | – | postemergence, 150 g ai/ha, 21 days | inhibition | 46.7 ± 1.2% |
| O=S(=O)(c1ccc(-c2ccc3ncnc(Nc4ccc(OCc5ccc(F)cc5)c(Cl)c4)c3c2)cc1)N1CCOCC1 | Trypanosoma cruzi | intracellular amastigote growth, β-galactosidase CPRG | 3T3, Tulahuen, β-galactosidase-expressing | 10 µM, 96 h | inhibition | 0% |
| CCOC(=O)C1(Cc2ccc(C(F)(F)F)cc2)Oc2cc(F)ccc2N(Cc2ccc(C(F)(F)F)cc2)C1=O (stereo not shown) | Setaria viridis | fresh weight, greenhouse postemergence | – | postemergence, 150 g ai/ha, 21 days | inhibition | 28 ± 1.99% |
| O=C(NNc1ccccc1)c1nnc(C23CC4CC(CC(C4)C2)C3)o1 | Rhizoctonia solani | microbial growth | – | 50 µg/mL | inhibition | 49.7% |
| Cc1cc(-c2ccc3ncnc(Nc4ccc(OCc5cccc(F)c5)c(Cl)c4)c3c2)cnc1N1CCOCC1 | Trypanosoma cruzi | intracellular amastigote growth, β-galactosidase CPRG | 3T3, Tulahuen, β-galactosidase-expressing | 10 µM, 96 h | inhibition | 49% |
| CC(O)CN(CC(C)O)CC(C)O.O=C(O)C(Cl)Cl (stereo not shown) | Chenopodium album | herbicidal activity | – | 15 mg/mL, 21 days, post-emergence greenhouse | inhibition | -60% |

Repeated from above:
| SMILES | target or system | test | system | setting | measurement | result |
| --- | --- | --- | --- | --- | --- | --- |
| O=C1NC2(CC2)COc2ncc(F)cc2[C@H]2COCCN2c2ccn3ncc1c3n2 | – | – | Sprague-Dawley rat, female, serum | oral, 2.5 mg/kg/day, 4 weeks daily, end of treatment | alanine aminotransferase activity | 32 ± 8.8 U/L |
